Experimental data collected from several papers.
Compare with care: the assays were run in different laboratories. Values joined by “and” are separate records of one study, mostly repeats; a detail may differ. ± gives the spread as reported.
lasR: Transcriptional activator protein LasR (lasR, Pseudomonas aeruginosa, UniProt P25084)
OPRK1: Kappa-type opioid receptor (OPRK1, Homo sapiens, UniProt P41145)

Amino acid sequences for entries named in this document (tags omitted). Residues count along the entry.
UniProt P25084, whole entry: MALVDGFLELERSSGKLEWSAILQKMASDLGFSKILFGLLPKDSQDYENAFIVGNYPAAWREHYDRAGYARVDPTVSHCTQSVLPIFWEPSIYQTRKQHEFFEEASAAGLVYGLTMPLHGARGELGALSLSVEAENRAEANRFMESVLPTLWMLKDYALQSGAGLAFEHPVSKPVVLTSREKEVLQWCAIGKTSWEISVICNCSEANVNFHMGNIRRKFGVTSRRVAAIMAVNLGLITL
UniProt P41145, whole entry: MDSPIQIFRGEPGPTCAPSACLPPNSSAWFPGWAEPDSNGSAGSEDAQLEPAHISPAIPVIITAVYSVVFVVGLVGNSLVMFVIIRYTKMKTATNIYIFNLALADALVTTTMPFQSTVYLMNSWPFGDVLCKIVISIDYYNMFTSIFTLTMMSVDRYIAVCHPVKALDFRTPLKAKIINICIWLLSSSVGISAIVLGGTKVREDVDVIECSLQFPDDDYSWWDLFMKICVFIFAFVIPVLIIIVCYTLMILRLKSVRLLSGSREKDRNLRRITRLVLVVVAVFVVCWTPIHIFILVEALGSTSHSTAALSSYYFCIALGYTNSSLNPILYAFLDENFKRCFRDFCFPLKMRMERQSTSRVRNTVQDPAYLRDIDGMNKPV
UniProt O60928, whole entry M125R: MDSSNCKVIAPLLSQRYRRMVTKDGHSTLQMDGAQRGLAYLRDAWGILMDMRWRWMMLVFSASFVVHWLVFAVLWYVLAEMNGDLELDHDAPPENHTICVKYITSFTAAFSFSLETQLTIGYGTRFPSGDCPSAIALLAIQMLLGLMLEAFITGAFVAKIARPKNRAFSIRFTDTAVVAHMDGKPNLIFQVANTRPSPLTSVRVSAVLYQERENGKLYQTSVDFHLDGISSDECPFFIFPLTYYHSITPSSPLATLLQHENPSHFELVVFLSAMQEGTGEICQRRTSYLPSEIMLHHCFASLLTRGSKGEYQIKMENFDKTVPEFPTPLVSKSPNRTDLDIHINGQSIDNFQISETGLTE
UniProt P30291, whole entry: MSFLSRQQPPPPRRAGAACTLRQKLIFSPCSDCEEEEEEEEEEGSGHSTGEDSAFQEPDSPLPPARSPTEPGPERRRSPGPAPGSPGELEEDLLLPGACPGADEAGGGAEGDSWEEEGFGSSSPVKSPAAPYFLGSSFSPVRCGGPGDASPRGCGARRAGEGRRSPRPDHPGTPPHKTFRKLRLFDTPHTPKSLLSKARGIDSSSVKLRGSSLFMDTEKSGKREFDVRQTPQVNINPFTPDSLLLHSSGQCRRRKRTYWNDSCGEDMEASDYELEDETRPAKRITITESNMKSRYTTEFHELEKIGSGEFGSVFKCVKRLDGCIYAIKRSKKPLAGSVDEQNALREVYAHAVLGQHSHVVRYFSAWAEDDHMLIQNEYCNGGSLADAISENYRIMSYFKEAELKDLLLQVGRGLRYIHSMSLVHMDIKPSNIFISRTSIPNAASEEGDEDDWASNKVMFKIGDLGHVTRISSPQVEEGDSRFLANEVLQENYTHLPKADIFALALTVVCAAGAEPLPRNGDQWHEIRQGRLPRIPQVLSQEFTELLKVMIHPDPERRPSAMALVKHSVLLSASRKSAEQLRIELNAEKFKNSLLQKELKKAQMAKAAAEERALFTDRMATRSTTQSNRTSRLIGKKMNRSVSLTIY
UniProt Q96SW2, whole entry: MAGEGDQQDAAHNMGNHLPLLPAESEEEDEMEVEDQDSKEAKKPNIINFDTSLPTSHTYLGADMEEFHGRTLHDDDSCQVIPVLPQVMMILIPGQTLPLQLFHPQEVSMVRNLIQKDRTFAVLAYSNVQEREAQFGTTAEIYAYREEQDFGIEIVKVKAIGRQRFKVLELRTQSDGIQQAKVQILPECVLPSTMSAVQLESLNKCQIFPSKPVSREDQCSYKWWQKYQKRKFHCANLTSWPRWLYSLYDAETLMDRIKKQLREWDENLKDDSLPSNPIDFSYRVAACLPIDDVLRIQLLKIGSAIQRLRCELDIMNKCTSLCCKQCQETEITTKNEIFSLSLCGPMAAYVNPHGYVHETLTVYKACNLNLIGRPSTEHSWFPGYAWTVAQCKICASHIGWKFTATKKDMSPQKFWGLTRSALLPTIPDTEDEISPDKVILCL
UniProt P00533, 25-1210 limits assumed: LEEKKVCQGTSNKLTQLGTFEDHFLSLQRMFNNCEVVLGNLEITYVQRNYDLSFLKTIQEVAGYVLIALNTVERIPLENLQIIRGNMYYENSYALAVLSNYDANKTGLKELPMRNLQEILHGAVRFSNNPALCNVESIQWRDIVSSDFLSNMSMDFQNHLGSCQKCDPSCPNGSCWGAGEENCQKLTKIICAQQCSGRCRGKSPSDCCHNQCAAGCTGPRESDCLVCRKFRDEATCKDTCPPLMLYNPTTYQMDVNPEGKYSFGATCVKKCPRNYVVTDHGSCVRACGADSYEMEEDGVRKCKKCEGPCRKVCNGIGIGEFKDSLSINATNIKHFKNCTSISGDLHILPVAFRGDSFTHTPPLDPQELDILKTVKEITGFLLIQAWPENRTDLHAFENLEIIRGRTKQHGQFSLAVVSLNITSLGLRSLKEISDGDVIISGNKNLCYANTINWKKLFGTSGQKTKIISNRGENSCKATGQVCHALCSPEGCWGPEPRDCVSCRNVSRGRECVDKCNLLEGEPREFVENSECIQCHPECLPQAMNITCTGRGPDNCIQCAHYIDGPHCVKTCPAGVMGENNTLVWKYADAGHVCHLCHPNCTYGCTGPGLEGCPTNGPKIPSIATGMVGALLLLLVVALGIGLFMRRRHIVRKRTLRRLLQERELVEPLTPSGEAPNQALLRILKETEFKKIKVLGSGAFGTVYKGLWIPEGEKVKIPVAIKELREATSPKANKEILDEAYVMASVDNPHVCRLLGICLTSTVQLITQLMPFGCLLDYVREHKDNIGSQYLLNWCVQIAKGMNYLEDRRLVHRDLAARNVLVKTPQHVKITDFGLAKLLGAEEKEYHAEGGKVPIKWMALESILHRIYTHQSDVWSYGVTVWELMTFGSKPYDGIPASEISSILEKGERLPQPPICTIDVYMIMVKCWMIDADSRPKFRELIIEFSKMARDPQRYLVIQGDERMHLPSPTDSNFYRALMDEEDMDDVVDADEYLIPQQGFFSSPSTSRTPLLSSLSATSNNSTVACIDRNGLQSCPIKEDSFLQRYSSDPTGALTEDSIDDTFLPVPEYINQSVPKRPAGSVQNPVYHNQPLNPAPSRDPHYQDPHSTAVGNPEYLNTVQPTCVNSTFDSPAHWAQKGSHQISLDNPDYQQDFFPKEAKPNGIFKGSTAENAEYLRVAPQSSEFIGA
UniProt Q9WMX2, 2420-3010 S2701T limits assumed: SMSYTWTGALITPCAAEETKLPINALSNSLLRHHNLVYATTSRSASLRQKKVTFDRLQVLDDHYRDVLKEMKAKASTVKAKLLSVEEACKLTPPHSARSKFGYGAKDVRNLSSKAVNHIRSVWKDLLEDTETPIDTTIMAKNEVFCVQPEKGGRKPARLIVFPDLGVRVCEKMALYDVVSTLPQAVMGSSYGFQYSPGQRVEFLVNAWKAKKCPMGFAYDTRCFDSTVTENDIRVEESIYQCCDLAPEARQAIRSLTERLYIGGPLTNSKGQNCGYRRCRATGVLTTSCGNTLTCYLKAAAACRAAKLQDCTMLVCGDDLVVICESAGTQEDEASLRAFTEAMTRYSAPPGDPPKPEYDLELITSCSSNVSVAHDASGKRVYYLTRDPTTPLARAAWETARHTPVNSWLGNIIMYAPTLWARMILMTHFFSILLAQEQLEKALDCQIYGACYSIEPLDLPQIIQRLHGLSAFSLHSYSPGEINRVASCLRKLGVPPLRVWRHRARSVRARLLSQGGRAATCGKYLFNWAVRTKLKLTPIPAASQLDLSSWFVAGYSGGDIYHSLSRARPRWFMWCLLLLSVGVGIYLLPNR
UniProt A0A0D5YGP3, 1-542: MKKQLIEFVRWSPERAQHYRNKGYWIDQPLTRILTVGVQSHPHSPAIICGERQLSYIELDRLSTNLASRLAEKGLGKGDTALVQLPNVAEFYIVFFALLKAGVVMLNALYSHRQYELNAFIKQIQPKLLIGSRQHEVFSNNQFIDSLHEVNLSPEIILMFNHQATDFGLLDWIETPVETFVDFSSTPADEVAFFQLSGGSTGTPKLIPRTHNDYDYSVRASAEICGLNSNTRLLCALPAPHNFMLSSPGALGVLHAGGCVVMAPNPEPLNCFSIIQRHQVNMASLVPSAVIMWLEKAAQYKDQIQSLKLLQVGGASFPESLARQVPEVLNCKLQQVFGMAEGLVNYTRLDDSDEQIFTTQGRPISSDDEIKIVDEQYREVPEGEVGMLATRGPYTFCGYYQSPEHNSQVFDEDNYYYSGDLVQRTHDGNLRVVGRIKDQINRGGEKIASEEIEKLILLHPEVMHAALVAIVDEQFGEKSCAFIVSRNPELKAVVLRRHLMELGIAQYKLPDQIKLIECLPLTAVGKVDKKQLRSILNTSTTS
UniProt P23975, whole entry: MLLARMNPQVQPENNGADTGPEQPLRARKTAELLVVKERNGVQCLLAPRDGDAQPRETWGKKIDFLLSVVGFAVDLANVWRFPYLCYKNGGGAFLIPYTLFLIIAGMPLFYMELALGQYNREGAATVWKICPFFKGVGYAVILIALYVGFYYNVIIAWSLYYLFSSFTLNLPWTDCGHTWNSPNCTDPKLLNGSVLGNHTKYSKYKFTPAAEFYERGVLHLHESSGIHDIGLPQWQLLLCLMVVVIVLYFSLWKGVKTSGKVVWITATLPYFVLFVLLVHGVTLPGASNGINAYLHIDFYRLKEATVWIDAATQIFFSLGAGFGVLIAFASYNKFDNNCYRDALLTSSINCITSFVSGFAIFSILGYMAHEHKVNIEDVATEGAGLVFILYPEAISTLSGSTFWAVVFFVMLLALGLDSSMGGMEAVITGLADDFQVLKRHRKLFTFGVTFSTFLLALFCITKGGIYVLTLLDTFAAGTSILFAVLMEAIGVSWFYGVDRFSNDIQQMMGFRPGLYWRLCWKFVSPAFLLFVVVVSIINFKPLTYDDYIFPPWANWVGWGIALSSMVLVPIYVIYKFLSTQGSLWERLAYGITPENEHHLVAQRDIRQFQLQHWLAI
UniProt Q6XEC0, 23-265 limits assumed: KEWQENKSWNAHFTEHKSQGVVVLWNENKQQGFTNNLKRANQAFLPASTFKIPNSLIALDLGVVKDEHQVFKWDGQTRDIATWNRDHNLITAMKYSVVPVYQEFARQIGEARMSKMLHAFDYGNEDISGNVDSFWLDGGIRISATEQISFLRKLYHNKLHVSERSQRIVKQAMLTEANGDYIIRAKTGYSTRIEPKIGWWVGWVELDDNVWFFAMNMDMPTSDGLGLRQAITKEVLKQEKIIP
UniProt Q60492, whole entry: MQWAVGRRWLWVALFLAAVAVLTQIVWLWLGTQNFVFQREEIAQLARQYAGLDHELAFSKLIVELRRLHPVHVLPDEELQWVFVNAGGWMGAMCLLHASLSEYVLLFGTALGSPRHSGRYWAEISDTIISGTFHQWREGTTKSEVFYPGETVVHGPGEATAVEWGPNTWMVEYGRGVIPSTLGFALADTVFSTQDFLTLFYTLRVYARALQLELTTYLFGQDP

For O=C(Oc1c(Br)cc(Br)cc1CNC(=O)c1ccccc1[N+](=O)[O-])c1ccc(Cl)cc1, the EC50 was 2.09 nM (lasR; reporter gene, agonist; Escherichia coli JLD271 lasI-lacZ reporter).
For COCOc1ccc(C(=O)OC2=C[C@@H](C(=O)OC)[C@]3(C)CC[C@H]4C(=O)O[C@H](c5ccoc5)C[C@]4(C)[C@H]3C2=O)cc1F, the EC50 was over 10000 nM (OPRK1; agonist).
O=C(NC1CCN(Cc2cc(Cl)c3cccnc3c2O)CC1)c1ccccc1Cl has an IC50 of 15800 nM (KCNJ13 (Homo sapiens, UniProt O60928, M125R); ion current, inhibitor, thallium flux; T-REx-HEK293).
[11CH3]Nc1ccc(C(=O)C2CCN(C3Cc4ccccc4CC3O)CC2)cc1 (single isomer, unassigned) gave an uptake of 0.245 %ID/g (Sprague-Dawley rat, brain stem; 30 min).
With COc1ccc2c(c1)sc1nc(-c3ccc4c(c3)CN(C3CCC(=O)NC3=O)C4=O)c(NCc3ccccc3)n12 (stereo not drawn) the DC50 was 133 nM and 140 nM (WEE1/CRBN (Homo sapiens, UniProt P30291+Q96SW2); degrader, HiBiT luciferase; Jurkat (HiBiT-tagged); 5 h).
C[C@H](CS)C(=O)N[C@@H](Cc1c[nH]c2ccccc12)C(=O)O — result for “MIC of meropenem”: 16 µg/mL (Klebsiella pneumoniae; VIM-1 producing; 50 µM, together with: meropenem).
With COc1ccc(CN[C@@H]2CO[C@H](C(c3ccccc3)c3ccccc3)C[C@H]2O)cc1 the inhibition was 54.3% (OPRK1; radioligand binding; 10 µM, together with: [3H]bremazocine).
The plasma concentration of NCCNCCSc1ccccc1 is reported as 36300 ± 2510 ng/mL (mouse blood; 100 µg/mL, 30 min, 37 °C).
C=CC(=O)Nc1cc(-n2c(=O)ccc3cnc4ccc(-c5cn[nH]c5)cc4c32)ccc1C gave a remaining binding of 56% (EGFR (Homo sapiens, UniProt P00533); KinomeScan binding; 1 µM).
For O=c1ccn([C@@H]2O[C@H](COP(=O)(O)OP(=O)(O)OP(=O)(O)O)[C@@H](O)[C@]2(F)Br)c(=O)[nH]1, the IC50 was 45000 nM (Genome polyprotein, NS5B polymerase (Hepatitis C virus genotype 1b, UniProt Q9WMX2, S2701T); polymerase activity, inhibitor; genotype 1b S282T).
The Kd of O=C(NS(=O)(=O)OC[C@H]1O[C@@H](n2cnc3c(NCc4ccccc4)ncnc32)[C@H](O)[C@@H]1O)c1ccccc1O is reported as 87.6 ± 18.2 nM (2,3-dihydroxybenzoate-AMP ligase BasE (Acinetobacter baumannii, UniProt A0A0D5YGP3); binding).
O=C(NCc1cc(Br)cc(Br)c1OC(=O)c1ccccc1[N+](=O)[O-])c1ccccc1Cl has an EC50 of 5.12 nM (lasR; reporter gene, agonist; Escherichia coli JLD271 lasI-lacZ reporter).
C[C@@H]1CN(C)CCN1c1nc(-c2ccc(F)cc2)cs1 gave a Ki of 3500 nM (SLC6A2 (Homo sapiens, UniProt P23975)).
For Nc1cc(S(=O)(=O)O)cc2cc(S(=O)(=O)O)cc(O)c12, the Ki was 4.1 µg/mL (OXA-48 (Klebsiella pneumoniae, UniProt Q6XEC0); enzyme activity, inhibitor).
CC(C)C[C@@H](NC(=O)[C@H](NC(=O)[C@H]1CCCN1)[C@H](C)O)C(=O)N[C@H](Cc1c[nH]cn1)C(=O)N[C@@H](C(=O)N[C@H](Cc1c[nH]cn1)C(=O)N[C@H](CC(N)=O)C(=O)N[C@H](CCCNC(=N)N)C(=O)N[C@H](CCCNC(=N)N)C(=O)N[C@H](CCCNC(=N)N)C(=O)N[C@H](CCCNC(=N)N)C(=O)N[C@H](CCCNC(=N)N)C(N)=O)[C@H](C)O — result for “incidence of adverse events”: 66.7% (phase I single ascending dose; healthy male subjects; 36 mg, total events).
O[C@H](c1ccc(F)cc1)C(F)(F)CCN1CCC(O)(c2ccc(Cl)cc2)CC1 (racemic) has a Ki of 5.3 ± 0.6 nM (SIGMAR1 (Cavia porcellus, UniProt Q60492)).
With COc1ccc(C(=O)Oc2c(Br)cc(Br)cc2CNC(=O)c2ccccc2[N+](=O)[O-])cc1 the EC50 was 9.2 nM (lasR; reporter gene, agonist; Escherichia coli JLD271 lasI-lacZ reporter).
For CCCCCCCCCCCCNC(=O)N[C@H](C(=O)N[C@H]1/C=C/CCNC(=O)/C=C/[C@H](C)NC1=O)C(C)C, the Ki was 104 ± 46.6 nM (PSMB6 (Homo sapiens, UniProt P28072); caspase-like activity, inhibitor, Proteasome-Glo; MM.1R; 24 h).
